Measured values gathered from unrelated publications.
Each line is one published result; not all experiments were run side by side. ≈ marks a conversion by molar mass, not a printed value.
TMPRSS2: Transmembrane protease serine 2 (TMPRSS2, Homo sapiens, UniProt O15393)
Chain of UniProt O15393 (whole entry, looked up): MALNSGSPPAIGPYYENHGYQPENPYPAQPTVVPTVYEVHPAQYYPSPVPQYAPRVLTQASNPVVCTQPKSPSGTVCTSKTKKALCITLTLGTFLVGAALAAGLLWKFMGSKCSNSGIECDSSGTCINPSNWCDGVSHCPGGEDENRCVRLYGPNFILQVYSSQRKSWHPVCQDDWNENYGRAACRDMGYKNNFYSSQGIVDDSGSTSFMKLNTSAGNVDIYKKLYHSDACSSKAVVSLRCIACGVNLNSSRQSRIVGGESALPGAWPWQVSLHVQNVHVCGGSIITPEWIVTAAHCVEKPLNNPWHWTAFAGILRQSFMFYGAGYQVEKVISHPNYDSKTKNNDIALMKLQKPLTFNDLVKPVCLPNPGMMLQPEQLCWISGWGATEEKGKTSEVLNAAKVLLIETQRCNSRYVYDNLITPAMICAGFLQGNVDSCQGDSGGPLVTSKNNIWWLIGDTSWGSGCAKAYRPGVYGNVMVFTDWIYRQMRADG
PFF0160c: Dihydroorotate dehydrogenase (quinone), mitochondrial (PFF0160c, Plasmodium falciparum, UniProt Q08210)
Chain of UniProt Q08210 (whole entry, looked up): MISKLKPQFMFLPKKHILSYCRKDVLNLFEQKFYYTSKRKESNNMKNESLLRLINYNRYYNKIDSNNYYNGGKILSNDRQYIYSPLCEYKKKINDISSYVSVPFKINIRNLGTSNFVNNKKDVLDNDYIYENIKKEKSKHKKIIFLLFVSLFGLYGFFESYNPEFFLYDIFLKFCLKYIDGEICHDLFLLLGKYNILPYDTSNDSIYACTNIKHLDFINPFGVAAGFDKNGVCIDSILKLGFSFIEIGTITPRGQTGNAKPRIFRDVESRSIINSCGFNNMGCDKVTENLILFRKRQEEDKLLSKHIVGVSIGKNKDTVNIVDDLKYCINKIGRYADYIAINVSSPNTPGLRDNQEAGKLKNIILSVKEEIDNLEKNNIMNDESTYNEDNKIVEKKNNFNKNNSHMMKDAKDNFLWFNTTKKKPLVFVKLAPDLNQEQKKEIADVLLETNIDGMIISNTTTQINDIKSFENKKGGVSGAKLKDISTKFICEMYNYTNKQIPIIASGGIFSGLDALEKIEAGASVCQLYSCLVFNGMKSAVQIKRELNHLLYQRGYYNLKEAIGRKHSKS
Chain of UniProt P45983 (whole entry, looked up): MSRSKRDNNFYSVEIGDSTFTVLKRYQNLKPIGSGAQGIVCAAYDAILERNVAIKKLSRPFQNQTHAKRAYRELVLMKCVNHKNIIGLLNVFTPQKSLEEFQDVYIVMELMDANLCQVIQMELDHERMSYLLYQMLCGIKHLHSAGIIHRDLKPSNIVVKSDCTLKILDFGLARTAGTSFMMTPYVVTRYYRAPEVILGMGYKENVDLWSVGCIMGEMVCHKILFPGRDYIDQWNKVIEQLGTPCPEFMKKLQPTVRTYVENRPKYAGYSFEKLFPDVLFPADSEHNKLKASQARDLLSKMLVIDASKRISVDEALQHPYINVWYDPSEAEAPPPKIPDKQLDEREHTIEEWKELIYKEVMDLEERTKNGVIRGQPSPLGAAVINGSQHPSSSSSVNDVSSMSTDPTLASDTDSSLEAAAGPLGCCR
Chain of UniProt P25103 (whole entry, looked up): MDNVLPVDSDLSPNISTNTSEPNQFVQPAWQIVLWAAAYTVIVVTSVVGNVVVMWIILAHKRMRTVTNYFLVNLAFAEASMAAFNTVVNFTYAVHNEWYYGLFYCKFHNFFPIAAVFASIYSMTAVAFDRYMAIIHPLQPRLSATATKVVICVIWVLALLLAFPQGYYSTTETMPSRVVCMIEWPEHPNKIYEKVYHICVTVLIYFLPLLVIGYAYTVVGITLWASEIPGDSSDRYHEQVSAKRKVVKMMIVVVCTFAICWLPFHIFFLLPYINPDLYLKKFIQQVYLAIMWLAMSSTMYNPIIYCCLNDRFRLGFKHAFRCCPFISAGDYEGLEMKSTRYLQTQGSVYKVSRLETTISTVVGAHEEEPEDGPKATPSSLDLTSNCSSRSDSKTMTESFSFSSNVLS
Chain of UniProt O75460 (whole entry, looked up): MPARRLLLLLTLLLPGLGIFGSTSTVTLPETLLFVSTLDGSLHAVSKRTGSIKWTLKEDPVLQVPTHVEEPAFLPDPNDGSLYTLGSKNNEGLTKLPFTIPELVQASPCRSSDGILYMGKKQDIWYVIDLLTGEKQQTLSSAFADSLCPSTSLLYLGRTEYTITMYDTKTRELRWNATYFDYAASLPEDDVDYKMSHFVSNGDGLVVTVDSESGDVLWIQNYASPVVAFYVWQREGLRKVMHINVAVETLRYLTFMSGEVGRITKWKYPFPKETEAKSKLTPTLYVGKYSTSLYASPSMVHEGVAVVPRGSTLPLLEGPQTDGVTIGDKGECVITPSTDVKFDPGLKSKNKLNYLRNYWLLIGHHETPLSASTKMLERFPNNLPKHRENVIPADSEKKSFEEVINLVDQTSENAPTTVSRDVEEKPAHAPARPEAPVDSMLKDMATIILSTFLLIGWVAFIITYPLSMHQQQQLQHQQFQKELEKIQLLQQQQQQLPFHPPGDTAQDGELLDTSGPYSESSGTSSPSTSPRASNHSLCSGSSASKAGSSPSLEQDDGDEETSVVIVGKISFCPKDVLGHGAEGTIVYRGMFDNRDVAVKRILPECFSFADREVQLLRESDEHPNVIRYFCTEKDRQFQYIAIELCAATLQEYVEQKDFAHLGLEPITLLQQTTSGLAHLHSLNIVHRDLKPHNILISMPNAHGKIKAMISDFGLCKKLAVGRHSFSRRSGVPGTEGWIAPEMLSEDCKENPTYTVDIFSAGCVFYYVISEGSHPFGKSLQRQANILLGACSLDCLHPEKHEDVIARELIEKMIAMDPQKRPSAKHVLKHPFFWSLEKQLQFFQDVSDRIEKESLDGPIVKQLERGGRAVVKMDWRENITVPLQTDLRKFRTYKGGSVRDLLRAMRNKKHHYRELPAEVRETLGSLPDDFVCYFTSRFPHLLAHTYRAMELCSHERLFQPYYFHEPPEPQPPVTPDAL
Chain of UniProt Q9UIK4 (whole entry, looked up): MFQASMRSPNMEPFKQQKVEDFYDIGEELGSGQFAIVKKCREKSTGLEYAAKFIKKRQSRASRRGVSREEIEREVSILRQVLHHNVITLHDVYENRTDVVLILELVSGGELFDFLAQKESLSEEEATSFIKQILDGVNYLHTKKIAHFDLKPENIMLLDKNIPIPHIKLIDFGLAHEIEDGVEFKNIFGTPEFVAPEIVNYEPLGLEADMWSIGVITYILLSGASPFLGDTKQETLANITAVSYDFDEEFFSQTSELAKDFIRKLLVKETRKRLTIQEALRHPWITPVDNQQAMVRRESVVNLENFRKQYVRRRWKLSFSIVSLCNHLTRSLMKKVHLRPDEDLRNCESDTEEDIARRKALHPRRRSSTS
Chain of UniProt O43683 (whole entry, looked up): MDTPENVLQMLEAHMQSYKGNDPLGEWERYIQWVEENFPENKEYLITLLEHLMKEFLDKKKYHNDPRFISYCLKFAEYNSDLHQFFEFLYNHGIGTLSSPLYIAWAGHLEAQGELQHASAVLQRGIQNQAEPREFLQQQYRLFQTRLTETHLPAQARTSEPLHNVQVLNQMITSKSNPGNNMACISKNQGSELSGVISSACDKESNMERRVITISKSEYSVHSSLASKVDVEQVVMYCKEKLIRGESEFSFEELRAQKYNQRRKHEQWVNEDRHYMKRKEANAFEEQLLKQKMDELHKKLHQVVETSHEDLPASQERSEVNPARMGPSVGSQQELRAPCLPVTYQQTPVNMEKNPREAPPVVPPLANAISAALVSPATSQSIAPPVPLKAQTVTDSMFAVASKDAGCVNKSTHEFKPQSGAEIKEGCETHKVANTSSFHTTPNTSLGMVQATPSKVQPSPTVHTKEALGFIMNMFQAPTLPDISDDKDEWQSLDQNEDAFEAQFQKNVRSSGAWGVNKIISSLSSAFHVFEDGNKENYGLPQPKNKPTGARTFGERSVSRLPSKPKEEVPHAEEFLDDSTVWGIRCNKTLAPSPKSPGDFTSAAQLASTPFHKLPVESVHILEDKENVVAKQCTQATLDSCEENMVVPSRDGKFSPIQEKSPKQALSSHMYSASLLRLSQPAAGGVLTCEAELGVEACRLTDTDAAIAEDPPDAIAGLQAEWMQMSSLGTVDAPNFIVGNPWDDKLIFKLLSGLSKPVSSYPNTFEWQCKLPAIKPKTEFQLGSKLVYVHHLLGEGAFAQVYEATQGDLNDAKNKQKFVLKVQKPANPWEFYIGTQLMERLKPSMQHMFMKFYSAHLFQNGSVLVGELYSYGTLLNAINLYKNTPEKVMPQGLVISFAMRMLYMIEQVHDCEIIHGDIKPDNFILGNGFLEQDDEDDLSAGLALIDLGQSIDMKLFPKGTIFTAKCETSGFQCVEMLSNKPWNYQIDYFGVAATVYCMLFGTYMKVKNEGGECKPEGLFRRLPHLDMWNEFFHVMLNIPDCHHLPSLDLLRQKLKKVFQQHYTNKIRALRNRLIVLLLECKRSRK

Structure (SMILES) | tested on | assay | system | setting | quantity | result
COc1ncccc1-c1cnn2ccc(N3CCN(C(=O)OC(C)C)CC3)nc12 | BUB1 (Homo sapiens, UniProt O43683) | binding, competition with immobilised ligand | – | 1 µM | remaining binding | 74%
N=C(N)NCCC[C@H](NC(=O)[C@H](Cc1ccsc1)NC(=O)[C@H](Cc1ccc(O)cc1)NC(=O)[C@@H](N)Cc1ccc(O)cc1)C(=O)c1nc2ccccc2s1 | TMPRSS2 | enzyme activity, inhibitor | – | 1 nM | activity vs control | 97%
Nc1ncc(-c2nc(N3CCOCC3)nc(N3CCOCC3)n2)c(C(F)F)n1 | ERN1 (Homo sapiens, UniProt O75460) | cell-free assay, competition with immobilised ligand | – | 10 µM | remaining binding | 80%
Cc1nc2ccccc2n1[C@@H]1C[C@H]2CC[C@@H](C1)N2Cc1nccn1-c1ccccc1 | PFF0160c | enzyme activity, inhibitor, absorbance | – | – | IC50 | 0.287 µM
CC(C)CC(=O)OC[C@H]1O[C@@](C#N)(c2ccc3c(N)ncnn23)[C@H](O)[C@@H]1O | TACR1 (Homo sapiens, UniProt P25103) | cell-free assay | – | 20 µM | inhibition | 32%
CC(Oc1ccc(C(=O)c2ccc(F)cc2)cc1)C(=O)N1CCc2ccccc21 (stereo not drawn) | PFF0160c | enzyme activity, inhibitor, absorbance | – | – | IC50 | 2.54 µM
Cc1nn(C)cc1-c1nc2c(N3CCN(Cc4ccc(Cl)cc4)CC3)c(Cl)cnc2[nH]1 | EGFR (Homo sapiens, UniProt P00533, G719S) | binding, competition with immobilised ligand | – | 1 µM | remaining binding | 100%
COC(=O)c1cc(-c2cccc(NC(=S)Nc3ccc(F)c(Cl)c3)c2)on1 | Mycolicibacterium fortuitum | microbial growth, broth dilution | ATCC6841 | 48 h | MIC | 32 µg/mL (≈ 78.8 µM)
CS(=O)(=O)N[C@@H](CCC(=O)O)C(=O)N[C@@H](Cc1ccccc1)C(=O)N[C@@H](CCCNC(=N)N)C(=O)c1nc2ccccc2s1 | TMPRSS2 | enzyme activity, inhibitor | – | 1 nM | activity vs control | 74%
[2H]c1c([2H])c([C@]2([2H])CCCN2C(=O)C(C)(C)Oc2ccc3cn[nH]c3c2)c([2H])c([2H])c1C([2H])([2H])[2H] | DAPK2 (Homo sapiens, UniProt Q9UIK4) | binding, competition with immobilised ligand | – | 1 µM | remaining binding | 88%
C#Cc1n[nH]c2c(-c3cn([C@@H](C)c4ccccn4)c(=O)[nH]c3=O)cc(F)cc12 | MAPK8 (Homo sapiens, UniProt P45983) | enzyme activity, inhibitor | – | 0.1 µM | inhibition | 8.2%
CC(=O)N[C@@H](CCC(=O)O)C(=O)N[C@@H](Cc1ccccc1)C(=O)N[C@H](CCCNC(=N)N)C(=O)c1nc2ccccc2s1 | TMPRSS2 | enzyme activity, inhibitor | – | 1 nM | activity vs control | 32%

Repeated from above:
Structure (SMILES) | tested on | assay | system | setting | quantity | result
Cc1nc2ccccc2n1[C@@H]1C[C@H]2CC[C@@H](C1)N2Cc1nccn1-c1ccccc1 | PFF0160c | enzyme activity, inhibitor, absorbance | – | – | IC50 | 0.287 µM
